Experimental data collected from several papers.
Every numbered part comes from another study and shows a few of its results, in no order.

Block 1
Target: Interferon regulatory factor 3, full length, phosphomimetic (IRF3, Homo sapiens, UniProt Q14653, residues 1-427, S386D/S396D/S398D/S402D/T404D/S405D)
Chain of UniProt Q14653 (whole entry, unmodified, looked up): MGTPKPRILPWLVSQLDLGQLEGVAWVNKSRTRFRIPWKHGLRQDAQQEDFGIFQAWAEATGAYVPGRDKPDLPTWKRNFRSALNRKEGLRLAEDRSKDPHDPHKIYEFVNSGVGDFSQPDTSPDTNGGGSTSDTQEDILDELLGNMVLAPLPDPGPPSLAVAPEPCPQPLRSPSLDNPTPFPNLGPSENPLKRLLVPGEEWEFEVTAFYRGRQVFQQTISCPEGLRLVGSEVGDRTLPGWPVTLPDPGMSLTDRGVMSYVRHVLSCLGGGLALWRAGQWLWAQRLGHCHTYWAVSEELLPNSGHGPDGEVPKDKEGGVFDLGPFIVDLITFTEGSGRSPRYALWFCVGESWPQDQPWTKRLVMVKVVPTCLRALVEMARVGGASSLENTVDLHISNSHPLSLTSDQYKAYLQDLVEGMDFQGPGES
Method: protein-binding microarray
Form: double-stranded DNA, one strand shown
Sample: in vitro
Concentration: 2540 nM top
Notes: 60-bp whole probe
With: salmon DNA 0.4 mg/ml
Relative to: random background probes
Reading: higher = stronger binding
Constant ends, left off below: GCCTAGCAC … GTCTTGATTCGCTTGACGCTGCTG
| Sequence | fitted relative affinity [z-score] |
| --- | --- |
| TCATCTTTCACTACTCCACTGTGCTAG | 1.72 |
| TTAAATATCAGTCTCGATTAGTGCTAG | 1.59 |
| GACGGTTTCGACTTTCGCGACGTGCTA | 3.98 |
| TCACTTTCAGTTTTCCTACTGTGCTAG | 5.72 |
| TTAGGTCTCGGTGTCGGTTAGTGCTAG | 0.877 |
| TTTGGTATCGGGTTTCGGTTAGTGCTA | 3.98 |
| TTAGATTTCTGTCTCGATTAGTGCTAG | 2.1 |
| GACGATCTCAGACTGGAGATGTGCTAG | 0.214 |
| TTAGATCTCAGTACCGATTAGTGCTAG | 0.763 |
| TTAGGACTGCTTATCCTGTAGTGCTAG | -0.344 |
| TCATTTCTCCTTTGTAAACTGTGCTAG | 3 |
| TTAGGTTTCGAGTATCGGTTAGTGCTA | 3.35 |
| GACCGTATCGGTTTCGGGACGTGCTAG | 7.47 |
| GAAGATTTCAGTCTCGAGACGTGCTAG | 1.99 |
| TCACATACGAGTTTCCAACTGTGCTAG | 2.66 |
| TGAGGTATCGGTCTCGGTTAGTGCTAG | 4.07 |
| TGGAGTCTCTGTTCTTTTCAGTGCTAG | 0.775 |
| TCAGGTTTCGGTATCGGTTAGTGCTAG | 8.39 |
| TTAGATCTCACTATCGATTAGTGCTAG | 0.58 |
| GACGGACTGGGTATCGGGATGTGCTAG | -0.0626 |

Block 2
Target: Prothrombin, mature alpha-thrombin (F2, Homo sapiens, UniProt P00734)
Method: aptamer microarray, sandwich
Form: DNA with 2'F-ANA
Sample: in vitro
Concentration: 200 nM
Notes: whole 15-mer aptamer, many near background
With: Cy3 exosite-II aptamer, 400 nM
Reading: higher = stronger binding
Sequence: GGTTGGTGTGGTTGG
| Modification | mean fluorescence intensity [a.u.] |
| --- | --- |
| 2'F-ANA at 2 6 9 10 13 15 | 82.7 |
| 2'F-ANA at 1 3 9 10 11 12 13 14 | 62.8 |
| 2'F-ANA at 5 6 9 10 11 12 13 | 49.4 |
| 2'F-ANA at 1 3 7 8 9 15 | 379 |
| 2'F-ANA at 1 4 5 11 12 13 14 | 48 |
| 2'F-ANA at 1 3 4 5 7 10 14 15 | 46.7 |
| 2'F-ANA at 4 5 6 7 9 10 12 13 14 | 55.5 |
| 2'F-ANA at 2 3 5 9 10 13 14 15 | 49.6 |
| 2'F-ANA at 1 2 4 9 11 12 | 225 |
| 2'F-ANA at 1 2 4 7 9 11 12 15 | 176 |
| 2'F-ANA at 3 4 5 7 9 11 14 | 46.9 |
| 2'F-ANA at 2 6 9 11 12 15 | 498 |
| 2'F-ANA at 1 4 5 6 9 10 11 12 13 14 15 | 54.3 |
| 2'F-ANA at 2 3 6 10 12 13 14 15 | 251 |
| 2'F-ANA at 1 2 4 5 7 10 11 14 | 45.8 |
| 2'F-ANA at 2 3 4 5 6 7 10 11 12 13 | 59.5 |
| 2'F-ANA at 5 7 13 15 | 57.3 |
| 2'F-ANA at 2 3 8 10 12 13 14 | 341 |
| 2'F-ANA at 2 4 6 10 11 12 14 | 68.7 |
| 2'F-ANA at 4 5 6 7 8 9 11 13 15 | 348 |
| 2'F-ANA at 1 2 3 5 6 7 8 11 12 13 14 | 49.3 |
| 2'F-ANA at 1 2 5 7 10 14 15 | 47.1 |
| 2'F-ANA at 1 3 7 9 11 12 13 14 | 104 |

Block 3
Target: Fragile X messenger ribonucleoprotein 1, C-terminal low-complexity region (Fmr1, Mus musculus, UniProt P35922)
Method: RNA Bind-n-Seq
Form: RNA
Sample: in vitro
Concentration: 200 nM
Notes: whole 134-nt RNA, ends assumed
With: 150 mM KCl
Relative to: input library
Reading: higher = stronger binding
Constant ends, left off below: GGGAGUUCUACAGUCCGACGAUC … UGGAAUUCUCGGGUGUCAAGG
| Sequence | log2 enrichment |
| --- | --- |
| GCAGGAAGCAAAAACAAAUGGAAAUGCUUCGGAUAGUGGCAGGGGUGGGGGUUGCUAAGGAAAGGGUGGGAUGGGAGUGGGUAAAGAGUU | -0.0437 |
| CCCUGUGGGCCUUGCUCAGAGCGGAGAAAGCAUUUGUUUGUACAAGAUCCGCAGACGUGUAAAUGUUCCUGCAAAAACACAGACUCGCGU | -0.8 |
| CCUCAAGUCCUGUGCUACACAUCGUAUGUACCGAAUCGGUGGGUGGGGUGGGGAAAGUAUUAUGUUACGCCGUUCGGAUCUGCACUUCCA | 0.863 |
| UCAAGUCCUGUGCUACACAUCGUAUGUACCGAAUCGGGGAGGGGAGGGGAGGGGAAAGUAUUAUGUUACGCCGUUCGGAUCUGCACUUCC | 1.18 |
| UAAGGAUUCUAUCUGCUUACUGCUACAGACCUAUGUGUUAAGGAAUUCUUCUCCUCCUCCUUGCGUAGAAGUUGAUCAGCACUGUGGUCA | 0.188 |
| CUGUGCUACACAUCGUAUGUACCGAAUCGGGAAAAAAAGGGAAAAAAAGGGGAAAAAAAGGGAAAGUAUUAUGUUACGCCGUUCGGAUCU | -0.477 |
| GCAGGAAGUAAAAACAAAUGGAAAUGCUUCGGAUAGUGGCAGGGAUGGGGGUUGCUAAGGAAAGGGUGGGAUGGGAGUGGGUAAAGAGUU | 0.155 |
| CCUCAAGUCCUGUGCUACACAUCGUAUGUACCGAAUCGGGGAGGAGGGAGGGGAAAGUAUUAUGUUACGCCGUUCGGAUCUGCACUUCCA | 1.25 |
| CAAGUCCUGUGCUACACAUCGUAUGUACCGAAUCGGUUUUUGGUUUGGAAAAAGGAAAGUAUUAUGUUACGCCGUUCGGAUCUGCACUUC | -0.869 |
| AAGUCCUGUGCUACACAUCGUAUGUACCGAAUCGGGGUUUUUGGGGUGGGGAGGGGAAAGUAUUAUGUUACGCCGUUCGGAUCUGCACUU | 1.19 |
| UAACUUUAGAGGAGGAUCAGAUGGAUAUGGCAGUGGACGUGGAUUUGGGGAUGGCUAUAAUGGGUAUGGAGGAGGACCUGGAGGUGGCAA | 0.189 |
| GUCCUGUGCUACACAUCGUAUGUACCGAAUCGGGUUUUUGGGGUUUUUGGUUUUUGGGGAAAGUAUUAUGUUACGCCGUUCGGAUCUGCA | -0.0579 |
| UCCUGUGCUACACAUCGUAUGUACCGAAUCGGGGAAAGGGGAAAAAAAGGGGUUUGGGGAAAGUAUUAUGUUACGCCGUUCGGAUCUGCA | 0.466 |
| CAAGUCCUGUGCUACACAUCGUAUGUACCGAAUCGGGGUUUGGGUUUGGUUUGGGAAAGUAUUAUGUUACGCCGUUCGGAUCUGCACUUC | 0.035 |

Block 4
Target: RNA binding protein fox-1 homolog 2, RRM domain, GST-SBP tag (RBFOX2, Homo sapiens, UniProt O43251-10, residues 100-194)
Method: RNA Bind-n-Seq
Form: RNA
Sample: in vitro
Concentration: 365 nM
Notes: natural RNA segment, single round, ends assumed
Relative to: no-protein control
Reading: higher = stronger binding
Constant ends, left off below: GGGAGUUCUACAGUCCGACGAUC … UGGAAUUCUCGGGUGCCAA
Target sequence (chain): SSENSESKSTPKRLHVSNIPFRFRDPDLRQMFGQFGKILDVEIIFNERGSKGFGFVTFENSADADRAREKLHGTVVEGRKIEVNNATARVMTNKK
| Sequence | RBNS enrichment (R) |
| --- | --- |
| AUAGAUUUACAAUAUGUAAGAUUAAGCUGUUGAUUUCAAUAGAGCUGAGAGCUUUUAGUAAAAAUAGGCAUUUAUUUAAUAUUUCCCUGUUCCUUUGGCAAGCUUUAUCA | 0.494 |
| UUCUAUUUCUUGUCAUUACCAAGCCAAUUACUUUUGCCAAAUUUUUCUGUGAUCUGCCCUGAUUAAGAUGAAUUGUGAAAUUUACAUCAAGCAAUUAUCAAAGCGGGCUG | 0.469 |
| AGGGGAAGGCUACAUUUCUAUGGGUAUAGAAAUGGGAAUAUUUGCGAGCCUAUCUCAGAUGUACAUUAAUAGACCUCACUGCCUUCCGGGUGAAGGUGUGUUGUCCUACA | 0.784 |
| CUGCUGCCCUAGCGCCGGCUUGGCCGCGCCCACGCGCCCUCAAGCCAUGCUGCUCCUUUCUGUAAAUACCCGCUGCAGUGGCGGCCCAGAGCGAGGAACAAGCCAUUAGG | 0.214 |
| UGCUGUCUUUGUUUUCCUUUGUCUUUCUCCUGUUUGCCAAAAUUCAAUUCAAGUUGUGAUUUUCAAGAGGACCUCAAAACAAUUCUGUACUUAAUAUAAAAAUCAAUGUC | 0.505 |
| AGCCUGGCCAUCCCCAAGCCUUCAACAGAAGCUGUGCUGCCACGGCAGGCCCAGGCCAGCCAGUGCCCGAGGCCAGGAAGGCCGGGCCGUGGAGGUCCUGUCCACAGCUG | 0.338 |
| GUCCAGUAGUCACAUAGCUUUAAUAUCUAGUUCAAAGCUAACCAUAGUAUAAUUGUUAUAUUAAGGAGUUAUUUUUUCUUAAAACAUUUUUUUUUGCUUGUUUUGGUUCU | 1.89 |
| CAAAAAGAUGAAUUAUCAAUGAUUUGUAAUUAUAUCAGUUGAUUUUUUUUGAAAAGAUGAACCAAAGGAUUUGACUGCUAAUAUUUUAUUCCUUACACUUUUUUUCUGAA | 0.892 |
| AAUUGAACAAGAAAUGCAUCUGUCUUAGAAACUGGAGAUUAUUUGAUGUUAGGUAAAACAUGUAAUUGUUUCUCUGGCAAAUUUGUAUCAGUAAUUUGAAAAUGAGAUAU | 0.955 |
| GGACAGAGUCUCAAGCCCUUAAUUUAUUUUAGCAGCUGUGUUUCUGUGACCCUGGUGUGACUAAGCAUCAGGGGUGGGGUUGUAUAAGUUCAAAAGUGUGAAAUGUCUGA | 0.523 |
| GUUAGGGCAACAAUGAAGGAGGACCCAGCCAAGCUAGAAGGAAUUUUGUGGAUGGGAGACAGCAGGAUUAGCUUCAGCUUGGGCUGGAGCAGUCAAUAUAGGAUCUCAGG | 0.394 |
| UUCUAAUCUAGAGCACGGAGAACUGGUCUGUCACUUUUAAAAUUAGAUGCCUUUGAUCAGAGUUUGACUCACAGACAGCAUUUGAGCUCUACAGCUAUUUGAGUCCCUAG | 0.412 |

A few entries again (block 2):
| Modification | mean fluorescence intensity [a.u.] |
| --- | --- |
| 2'F-ANA at 1 4 5 6 9 10 11 12 13 14 15 | 54.3 |
| 2'F-ANA at 2 3 6 10 12 13 14 15 | 251 |
| 2'F-ANA at 1 2 4 5 7 10 11 14 | 45.8 |
| 2'F-ANA at 2 3 4 5 6 7 10 11 12 13 | 59.5 |
| 2'F-ANA at 5 7 13 15 | 57.3 |
| 2'F-ANA at 2 3 8 10 12 13 14 | 341 |
| 2'F-ANA at 2 4 6 10 11 12 14 | 68.7 |
